Measured values gathered from unrelated publications.
Numbered parts are unrelated; each lists some results of a single study.

Block 1
Target: Sal-like protein 4, full length isoform B (SALL4, Homo sapiens, UniProt Q9UJQ4-2, residues 1-616)
Method: universal PBM
Molecule type: double-stranded DNA, one strand shown
Sample: in vitro
Concentration: not given
Notes: 8-mer, flanks averaged, mean of replicates
Direction: higher = stronger binding
Measurement: E-score
Strand = AAACCCCA; result = 0.0603
Strand = ATTATCCA; result = 0.276
Strand = CATCAGAC; result = -0.0259
Strand = AAACGCCT; result = -0.0732
Strand = CTGAGCGA; result = -0.185
Strand = ACAGTCTC; result = -0.0687
Strand = TGAAGGCA; result = 0.0142
Strand = GCCTCAGA; result = -0.179
Strand = CGTTGGAC; result = -0.186
Strand = TATGGGGA; result = 0.076
Strand = AATCACCC; result = -0.0483
Strand = ACTGATAT; result = 0.169
Strand = CCCTCAGC; result = -0.228
Strand = CCCGAAAG; result = -0.127
Strand = ACACAATC; result = 0.0685
Strand = CGCCATAG; result = -0.07
Strand = TCGGACGA; result = -0.143
Strand = TCGGGACA; result = -0.148
Strand = ATGATGGG; result = 0.0189
Strand = AATGAGCA; result = 0.099
Strand = CAGTTCCC; result = -0.344
Strand = CACTATAA; result = 0.21
Strand = GTTGCGGA; result = -0.154
Strand = GTGTGTCA; result = 0.13
Strand = CAACAAAG; result = 0.0336

Block 2
Target: Fragile X messenger ribonucleoprotein 1, C-terminal low-complexity region (Fmr1, Mus musculus, UniProt P35922)
Method: RNA Bind-n-Seq
Molecule type: RNA
Sample: in vitro
Concentration: 200 nM
Notes: whole 134-nt RNA, ends assumed
With: 150 mM LiCl
Baseline: input library
Direction: higher = stronger binding
Measurement: log2 enrichment
Each molecule: 7-deaza-guanosine replaces G
All sequences stand within: GGGAGUUCUACAGUCCGACGAUC … UGGAAUUCUCGGGUGUCAAGG
Strand = UCCUGUGCUACACAUCGUAUGUACCGAAUCGGGGUUUUUGGGUUUUUGGGGUUUUUGGGAAAGUAUUAUGUUACGCCGUUCGGAUCUGCA; result = 0.348
Strand = GUCCUGUGCUACACAUCGUAUGUACCGAAUCGGGGAAAGGGGAAAAAGGGGAAAGGGGAAAGUAUUAUGUUACGCCGUUCGGAUCUGCAC; result = 1.18
Strand = ACCUUGCAGGUGGGCAUCUUUGGGAAGUGGGGCAAGGGGGGGAUAGGGAGGGGGGUAACACUUUGGGAACAGGUGGUCCCAGGUCGUUUC; result = 0.839
Strand = CCUGUGCUACACAUCGUAUGUACCGAAUCGGGGAAAAAAAGGGGUUUGGGGUUUUUGGGGAAAGUAUUAUGUUACGCCGUUCGGAUCUGC; result = -1.19
Strand = ACCAUGCAGGUGGGCAUCUUUGGGAAGUGGGGCAAGGGGGGGAUAAGGAGGGGGGUAACACUUUGGGAACAGGUGGUCCCAGGUCGUUUC; result = 1.3
Strand = UCAAGUCCUGUGCUACACAUCGUAUGUACCGAAUCGGUUUUUGGUUUGGUUUGGAAAGUAUUAUGUUACGCCGUUCGGAUCUGCACUUCC; result = -1.47
Strand = CAAGUCCUGUGCUACACAUCGUAUGUACCGAAUCGGGGUUUGGGGUUUGGUUUGGAAAGUAUUAUGUUACGCCGUUCGGAUCUGCACUUC; result = -0.97
Strand = UAACUUUAGAGGAGGAUCUGAUGGAUAUGGCAGUGGACGUGGAUUUGGGGAUGGCUAUAAAGGGUAUGGAGGAGGACCUGGAGGUGGCAA; result = -0.194
Strand = GUCCUGUGCUACACAUCGUAUGUACCGAAUCGGCCCCCCGGGCCCCCCGGCCCCCCGGAAAGUAUUAUGUUACGCCGUUCGGAUCUGCAC; result = 1.35
Strand = ACCAUGCAGGUGGGCAUCUUUGGGAAGUGAAACAAGGGGGGGAUAGGGAGGGGGGUAACACUUUGGGAACAGGUGGUCCCAGGUCGUUUC; result = 1.27
Strand = UCCUGUGCUACACAUCGUAUGUACCGAAUCGGGUUUUUGGGAAAAAGGGUUUUUUUGGGAAAGUAUUAUGUUACGCCGUUCGGAUCUGCA; result = -1.83

Block 3
Target: Interferon regulatory factor 5, full length, phosphomimetic (IRF5, Homo sapiens, UniProt Q13568-2, residues 1-514, K96S/S451D/S453D/S456D/S462D)
Method: protein-binding microarray
Molecule type: double-stranded DNA, one strand shown
Sample: in vitro
Concentration: 250 nM
Notes: 60-bp whole probe
With: salmon DNA 0.4 mg/ml
Baseline: random background probes
Direction: higher = stronger binding
Measurement: log fluorescence
All sequences stand within: GCCTAGCAC … GTCTTGATTCGCTTGACGCTGCTG
Strand = GACGGTCTCGTTATCGGGACGTGCTAG; result = 0.751 z-score
Strand = GACTGTATCGACACTGGGGACGTGCTA; result = 1.78 z-score
Strand = TTTGATTTCGGGACTGGATTAGTGCTA; result = 4.37 z-score
Strand = TTAGAACTGGGGACTGGCTTAGTGCTA; result = -0.397 z-score
Strand = GACGGACTGGGGTTTCGGAACGTGCTA; result = 1.33 z-score
Strand = TTAGGTATCGGGATTCGGTTAGTGCTA; result = 2.72 z-score
Strand = TTAGGACTGCTACGGCTTTAGTGCTAG; result = -0.644 z-score
Strand = GGACACGGATGCGGTCTGCCGTGCTAG; result = -0.534 z-score
Strand = GACGGTATCCTTACCCTGACGTGCTAG; result = -0.168 z-score
Strand = TTAGATCTCAGACTGGAGTAGTGCTAG; result = -0.345 z-score
Strand = CCCTGAGGAATCCTGCAGCCGTGCTAG; result = -0.762 z-score
Strand = TTACGTATCGACTTTCGGTTAGTGCTA; result = 10.4 z-score
Strand = GAAGGTATCGGTATCGGGACGTGCTAG; result = 5.86 z-score
Strand = GACGGTATCGGGTATCGAGACGTGCTA; result = 3.4 z-score
Strand = GATGGTATCCTACTGCTGACGTGCTAG; result = -0.242 z-score
Strand = TTTCACACTGTCCAGCAGGTGTGCTAG; result = 7.31 z-score
Strand = TTAAATCTCAGTCTCGATTAGTGCTAG; result = 1.27 z-score
Strand = GACGGTCTCGGTCTCGGCACGTGCTAG; result = 0.0187 z-score
Strand = GACGATCTCAGTATCGAAACGTGCTAG; result = 4.61 z-score
Strand = TCAGTAAGCAAAAATGAACTGTGCTAG; result = 0.24 z-score
Strand = GACGGTTTCCTTCTCATGACGTGCTAG; result = 1.08 z-score
Strand = TTAGGACTGCTTTACCTTTAGTGCTAG; result = -0.203 z-score
Strand = TCAACTAGGAGTTTTCAGACTGTGCTA; result = 0.181 z-score
Strand = TCAGCTTTCTTTTATGCACTGTGCTAG; result = 1.65 z-score
Strand = TACGATATCAGTCTCGAGACGTGCTAG; result = 1.38 z-score

Block 4
Target: RNA binding protein fox-1 homolog 2, RRM domain, GST-SBP tag (RBFOX2, Homo sapiens, UniProt O43251-10, residues 100-194)
Method: RNA Bind-n-Seq
Molecule type: RNA
Sample: in vitro
Concentration: 365 nM
Notes: natural RNA segment, single round, ends assumed
Baseline: no-protein control
Direction: higher = stronger binding
Measurement: RBNS enrichment (R)
All sequences stand within: GGGAGUUCUACAGUCCGACGAUC … UGGAAUUCUCGGGUGCCAA
Target sequence (chain): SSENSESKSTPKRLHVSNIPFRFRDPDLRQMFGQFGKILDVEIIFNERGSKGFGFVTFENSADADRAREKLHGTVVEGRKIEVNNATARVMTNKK
Strand = UUCUUGUUGUCCCUCCCAUUAGCCAGGGCGGAGACUGUCUGAGCUGUGCAGGAGGAGGGUUGCUAGUAGGUUCUGCUUCUGCUUCUCUCUGCUCCACUGUCUGCAGCCCA; result = 0.461
Strand = AAGUUAACUAAAGUGAGAAUGAAAAAACAAAAUUCCAAGACACUUUUUAAAAGAAUGUCUGCCCUCACACACUUUUAUGGAUUUGUUUUUCUUACAUACCCAUCUUUUAA; result = 0.411
Strand = CCAGCCUUGGUUUGGAGCUUGCAGACGUAACUGAAUAUAAUUUCCUCCAUUUGCAGCAUGGUUCCCAUGCCAUUGGCGCACCAGACAGAAAAGGGAGAGAGAAAAGACAG; result = 0.409
Strand = ACUCCUGAAAUCAUAUAGAAAGGCUGGGGUGGGCCCUGUCAUUCGUGGUUGAUUUCAAUACACUCAAGUGCCAUUCAUCCUUUAAGAAAAACAUCUGGAUAUCAAGGUGG; result = 0.367
Strand = CCAUUCUGUAGUCUUCAGGGUCAGCUGUUGAUAAAGGGGCAGGCUUGCGUUAUUGGCCUAGAUUUUGCUGCAGAUUAAAUCCUUUGAGGAUUCUCUUCUCUUUUACCAUU; result = 2.53
Strand = CCUGAGGCCUGUGGGGGCUGCAGGGGAGGAGGAUGUACCUUGUGUCUCUUUCAAGUGCCUUAAUCCGAGCCAGCAGGGCCUUCUGCUUGCCUGCUGCCAUACUGUAUGUA; result = 0.729
Strand = AUCAAAUCAUUGUUGCCUCUCAUACCAAAAUGUUCUUACCCACUGUCCUUCCCCCUUCUCUGCUUUGCAGUCCCCAUGGACUCUGGGCAUGGUGCACUGUCGUCUUUGCU; result = 0.532
Strand = UAAACGAUACCUUGUUCUUGGAACUGCAUGCUGCCAAGUGCCAUUCGUACUGAGCAUCCUCAUUUCAACGCAGUAUACGCUCUAGUUAUCAUGUGUAACGUGGGUCUGUU; result = 9.74
Strand = GACUGGGACCAGGCACCAGGCAGGGUCUAGAAGGCUGUGGUGAGGGAAGACGCCUUUCUCCUCCAACCCAACCUCAUCCUCCUUCUUCAGGGACUUGGGUGGGUACUUGG; result = 0.293
Strand = UAGAGUAGUUUAGGGUCCCUGACUCGAACCCUCACUGUGCCUUCUGCCGGGGAGGAGGGGCUCCUGGGCCUGCUUCCUCCAGGCGCUCUAGAUGCACAAUCCAAUACAGU; result = 0.2
Strand = UGGGUUAGAGUCCUGUGCUGGCCUGCCAUGGCAGCUGGCUACCUUCCAGACCAACUGUAGAGAUACCUGGCAUUUUGAAGAAAGCCUAGACUGGAGAGCAGGGCCUCUCU; result = 0.847
Strand = CGCCAAGCUUAAUGCAAGAAUAUCUGACUGUUUAGAAGAAAGAUAUUGCCACAAUCUCUGGAUGGUUUUCCAGGGUUGUGUUAUUACUGAGCUUCAUCUUUCCAGAAUGA; result = 0.373

A few entries again (block 2):
Strand = GUCCUGUGCUACACAUCGUAUGUACCGAAUCGGGGAAAGGGGAAAAAGGGGAAAGGGGAAAGUAUUAUGUUACGCCGUUCGGAUCUGCAC; result = 1.18
Strand = ACCAUGCAGGUGGGCAUCUUUGGGAAGUGGGGCAAGGGGGGGAUAAGGAGGGGGGUAACACUUUGGGAACAGGUGGUCCCAGGUCGUUUC; result = 1.3
Strand = CAAGUCCUGUGCUACACAUCGUAUGUACCGAAUCGGGGUUUGGGGUUUGGUUUGGAAAGUAUUAUGUUACGCCGUUCGGAUCUGCACUUC; result = -0.97
Strand = ACCAUGCAGGUGGGCAUCUUUGGGAAGUGAAACAAGGGGGGGAUAGGGAGGGGGGUAACACUUUGGGAACAGGUGGUCCCAGGUCGUUUC; result = 1.27
Strand = GUCCUGUGCUACACAUCGUAUGUACCGAAUCGGCCCCCCGGGCCCCCCGGCCCCCCGGAAAGUAUUAUGUUACGCCGUUCGGAUCUGCAC; result = 1.35
Strand = UCCUGUGCUACACAUCGUAUGUACCGAAUCGGGGUUUUUGGGUUUUUGGGGUUUUUGGGAAAGUAUUAUGUUACGCCGUUCGGAUCUGCA; result = 0.348
Strand = UCCUGUGCUACACAUCGUAUGUACCGAAUCGGGUUUUUGGGAAAAAGGGUUUUUUUGGGAAAGUAUUAUGUUACGCCGUUCGGAUCUGCA; result = -1.83
